Assay results collected from several papers.
Protocols differ between the studies behind these lines. ± marks the error that the study gave.
Organism: HIV-1

For `Nc1ccn([C@H]2CC[C@@H](CO)O2)c(=O)n1`, the IC50 was 330 ± 130 nM (viral replication, MTT; MT4).
The IC50 of `CC[C@H](C)[C@H](N)C(=O)N[C@@H](CC(C)C)C(=O)N[C@@H](CCCNC(=N)N)C(=O)N[C@@H](Cc1c[nH]c2ccccc12)C(=O)N[C@@H](CO)C(=O)N[C@@H](CCCNC(=N)N)C(=O)N[C@@H](CCCCN)C(=O)N[C@@H](CC(C)C)C(=O)N1CCC[C@H]1C(=O)N[C@@H](CS)C(=O)N[C@H](C(=O)N[C@@H](CO)C(=O)O)C(C)C` is reported as 7 nM (viral replication, inhibitor, β-galactosidase reporter; TZM-bl, NL4-3, CXCR4-tropic; 3 days).
For `Cc1cn([C@H]2C[C@H](N=[N+]=[N-])[C@@H](CO)O2)c(=O)[nH]c1=O`, the IC50 was 110 ± 23.5 nM (virus neutralization; SF162).
`Cc1c(O)cccc1C(=O)N[C@@H](CSc1ccccc1)[C@H](O)CN1C[C@H]2CCCC[C@H]2C[C@H]1C(=O)NC(C)(C)C` gave an IC50 of 12 ± 8 nM (viral replication; PBMC, Ba-L, R5).
`C#C[C@]1(CO)O[C@@H](n2cnc3c(N)nc(F)nc32)C[C@@H]1O` gave an IC50 of 0.3 ± 0.1 nM (viral replication, MTT; MT4).
`COc1cc(/C=C/C(=O)CC(=O)/C=C/c2ccc(OC(=O)[C@H](Cc3ccccc3)NC(=O)[C@@H](N)Cc3c[nH]c4ccccc34)c(OC)c2)ccc1OC(=O)[C@H](Cc1ccccc1)NC(=O)[C@@H](N)Cc1c[nH]c2ccccc12` has an IC50 of greater than 94 nM (viral replication, MTT; MT-4, IIIB).
The IC50 of `Nc1nc(NC2CC2)c2ncn([C@H]3C=C[C@@H](CO)C3)c2n1` is reported as 262 nM (viral cytopathicity; MT4 cells, wild type).
`Nc1nc(NC2CC2)c2ncn([C@H]3C=C[C@@H](CO)C3)c2n1` has an IC50 of 580 ± 30 nM (viral replication, MTT; MT4).
`CC[C@H](C)[C@H](NC(=O)[C@H](CC(C)C)NC(=O)[C@H](CCC(=O)O)NC(=O)[C@H](CCC(=O)O)NC(=O)[C@@H](NC(=O)[C@H](CCCCN)NC(=O)[C@H](CCCCN)NC(=O)[C@@H](NC(=O)[C@H](Cc1ccc(O)cc1)NC(=O)[C@H](CCC(=O)O)NC(=O)[C@H](CCC(=O)O)NC(=O)[C@@H](NC(=O)[C@H](CCCCN)NC(=O)[C@H](CCCCN)NC(=O)[C@H](CC(=O)O)NC(=O)[C@H](Cc1c[nH]c2ccccc12)NC(=O)[C@H](CCC(=O)O)NC(=O)[C@H](CCC(=O)O)NC(=O)[C@H](Cc1c[nH]c2ccccc12)NC(=O)[C@@H](NC(=O)[C@@H](N)CCSC)[C@@H](C)O)[C@@H](C)CC)[C@@H](C)O)[C@@H](C)CC)C(=O)N[C@@H](CCCCN)C(=O)N[C@@H](CCCCN)C(=O)N[C@@H](CO)C(=O)O` gave an IC50 of 15.2 ± 0.2 nM (virus neutralization; BG505).
The IC50 of `CC(C)C[C@H](NC(=O)CCCCCNC(=O)CCCC[C@@H]1SC[C@@H]2NC(=O)N[C@@H]21)C(=O)N[C@@H](CO)C(=O)N[C@@H](CC(=O)O)C(=O)N[C@@H](CO)C(=O)N1CCC[C@H]1C(=O)N[C@@H](CC(N)=O)C(=O)NCC(=O)N1CCC[C@H]1C(=O)N[C@@H](Cc1c[nH]c2ccccc12)C(=O)N[C@H](C(=O)N[C@@H](Cc1c[nH]c2ccccc12)C(=O)N[C@H](C(=O)N1CCC[C@H]1C(=O)N[C@@H](C)C(=O)N[C@@H](Cc1ccccc1)C(=O)N[C@@H](CS)C(=O)N[C@@H](CCC(N)=O)C(=O)N[C@@H](C)C(=O)N[C@H](C(=O)NCC(=O)O)C(C)C)C(C)C)C(C)C` is reported as 10900 ± 2280 nM (viral replication, inhibitor, SEAP reporter; CEMx174 SEAP reporter, NL4-3; 3 days).

A few entries again:
For `Nc1ccn([C@H]2CC[C@@H](CO)O2)c(=O)n1`, the IC50 was 330 ± 130 nM (viral replication, MTT; MT4).
The IC50 of `CC[C@H](C)[C@H](N)C(=O)N[C@@H](CC(C)C)C(=O)N[C@@H](CCCNC(=N)N)C(=O)N[C@@H](Cc1c[nH]c2ccccc12)C(=O)N[C@@H](CO)C(=O)N[C@@H](CCCNC(=N)N)C(=O)N[C@@H](CCCCN)C(=O)N[C@@H](CC(C)C)C(=O)N1CCC[C@H]1C(=O)N[C@@H](CS)C(=O)N[C@H](C(=O)N[C@@H](CO)C(=O)O)C(C)C` is reported as 7 nM (viral replication, inhibitor, β-galactosidase reporter; TZM-bl, NL4-3, CXCR4-tropic; 3 days).
